# Measured values gathered from unrelated publications.
# Numbered parts are unrelated; each lists some results of a single study. “And” joins repeats or separate records; there may be more than shown.
# Chain of UniProt Q13043 (whole entry, looked up): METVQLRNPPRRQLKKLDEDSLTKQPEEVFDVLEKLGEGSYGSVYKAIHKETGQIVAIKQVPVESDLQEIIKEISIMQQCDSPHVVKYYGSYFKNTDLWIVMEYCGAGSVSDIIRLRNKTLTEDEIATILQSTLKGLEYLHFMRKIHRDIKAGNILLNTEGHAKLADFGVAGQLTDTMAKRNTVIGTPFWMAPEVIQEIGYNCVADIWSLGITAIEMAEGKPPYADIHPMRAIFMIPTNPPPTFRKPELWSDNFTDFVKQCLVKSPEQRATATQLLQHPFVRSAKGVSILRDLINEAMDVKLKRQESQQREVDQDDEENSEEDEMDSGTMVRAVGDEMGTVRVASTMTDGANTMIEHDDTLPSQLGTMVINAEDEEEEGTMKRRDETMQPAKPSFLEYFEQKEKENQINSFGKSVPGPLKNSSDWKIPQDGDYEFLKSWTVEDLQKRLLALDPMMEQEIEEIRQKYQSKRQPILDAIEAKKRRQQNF
# Chain of UniProt P42681 (whole entry, looked up): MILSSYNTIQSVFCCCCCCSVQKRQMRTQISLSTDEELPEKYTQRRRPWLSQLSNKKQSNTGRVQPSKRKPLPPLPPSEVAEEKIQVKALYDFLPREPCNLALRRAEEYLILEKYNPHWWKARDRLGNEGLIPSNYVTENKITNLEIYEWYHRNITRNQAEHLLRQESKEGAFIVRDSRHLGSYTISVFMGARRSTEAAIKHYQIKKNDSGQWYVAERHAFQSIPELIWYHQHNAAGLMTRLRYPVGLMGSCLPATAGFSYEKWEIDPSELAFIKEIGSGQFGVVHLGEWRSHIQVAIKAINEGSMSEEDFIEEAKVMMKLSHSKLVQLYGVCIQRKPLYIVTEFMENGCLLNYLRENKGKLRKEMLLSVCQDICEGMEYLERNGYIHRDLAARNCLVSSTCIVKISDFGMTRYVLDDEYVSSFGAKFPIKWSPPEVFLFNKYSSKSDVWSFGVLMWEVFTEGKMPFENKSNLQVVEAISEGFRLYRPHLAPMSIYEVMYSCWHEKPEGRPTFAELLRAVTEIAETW
# Chain of UniProt O15197 (whole entry, looked up): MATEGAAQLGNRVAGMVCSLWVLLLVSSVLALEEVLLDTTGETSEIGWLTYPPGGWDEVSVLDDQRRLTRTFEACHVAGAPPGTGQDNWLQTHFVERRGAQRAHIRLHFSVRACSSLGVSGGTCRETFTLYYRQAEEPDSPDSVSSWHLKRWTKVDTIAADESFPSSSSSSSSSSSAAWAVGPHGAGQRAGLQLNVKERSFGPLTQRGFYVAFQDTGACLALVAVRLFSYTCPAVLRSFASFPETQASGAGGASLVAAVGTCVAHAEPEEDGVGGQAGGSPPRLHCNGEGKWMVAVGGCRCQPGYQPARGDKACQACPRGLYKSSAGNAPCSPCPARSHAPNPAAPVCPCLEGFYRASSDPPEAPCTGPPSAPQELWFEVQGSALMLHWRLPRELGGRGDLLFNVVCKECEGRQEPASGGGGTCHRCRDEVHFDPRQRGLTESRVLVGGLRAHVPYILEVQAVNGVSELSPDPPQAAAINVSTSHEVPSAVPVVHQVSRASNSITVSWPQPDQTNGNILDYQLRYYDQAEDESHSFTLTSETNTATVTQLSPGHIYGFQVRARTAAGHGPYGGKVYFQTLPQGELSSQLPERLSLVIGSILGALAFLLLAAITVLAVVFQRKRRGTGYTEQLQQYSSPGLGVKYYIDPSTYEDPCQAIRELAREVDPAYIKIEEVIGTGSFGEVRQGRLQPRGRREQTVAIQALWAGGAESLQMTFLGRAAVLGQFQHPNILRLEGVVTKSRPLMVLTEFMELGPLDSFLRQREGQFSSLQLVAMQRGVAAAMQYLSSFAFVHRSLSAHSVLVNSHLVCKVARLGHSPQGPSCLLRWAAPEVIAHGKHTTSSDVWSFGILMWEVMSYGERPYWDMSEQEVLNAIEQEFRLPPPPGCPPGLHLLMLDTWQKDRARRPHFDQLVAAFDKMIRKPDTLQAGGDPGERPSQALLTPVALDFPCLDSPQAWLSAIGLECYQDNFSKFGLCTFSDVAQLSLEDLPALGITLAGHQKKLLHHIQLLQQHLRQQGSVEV
# Chain of UniProt P0C264 (whole entry, looked up): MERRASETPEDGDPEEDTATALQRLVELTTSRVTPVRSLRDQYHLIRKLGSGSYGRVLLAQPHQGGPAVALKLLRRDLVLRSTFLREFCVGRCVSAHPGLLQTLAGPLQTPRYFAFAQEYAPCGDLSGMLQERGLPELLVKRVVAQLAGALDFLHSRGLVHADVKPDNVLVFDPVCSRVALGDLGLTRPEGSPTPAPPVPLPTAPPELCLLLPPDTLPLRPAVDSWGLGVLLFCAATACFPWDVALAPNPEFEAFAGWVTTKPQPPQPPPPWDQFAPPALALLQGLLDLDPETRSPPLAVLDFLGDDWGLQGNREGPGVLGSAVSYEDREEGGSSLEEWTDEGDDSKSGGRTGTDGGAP

# Set 1 — cell line: HaCaT; concentration: 100 µM; time: 18 h
Compound,viability
CC(C)[C@H](N)C(=O)OCCOCn1cnc2c(=O)[nH]c(N)nc21,107%
CC(CCc1ccccc1)NCC(O)c1ccc(O)c(C(N)=O)c1 (stereo not drawn),113%
CCCS(=O)(=O)Nc1ccc(F)c(C(=O)c2c[nH]c3ncc(-c4ccc(Cl)cc4)cc23)c1F,55.5%
COc1cc2nc(N3CCN(C(=O)C4COc5ccccc5O4)CC3)nc(N)c2cc1OC (stereo not drawn),16.5%
CO[C@H]1/C=C/O[C@@]2(C)Oc3c(C)c(O)c4c(O)c(c5c(nc6cc(C)ccn65)c4c3C2=O)NC(=O)/C(C)=C\C=C\[C@H](C)[C@H](O)[C@@H](C)[C@@H](O)[C@@H](C)[C@H](OC(C)=O)[C@@H]1C,64.1%
CC(C)C[C@H](NC(=O)CNC(=O)c1cc(Cl)ccc1Cl)B1OC(=O)C(CC(=O)O)(CC(=O)O)O1,22.5%
Cc1ccsc1C(=CCCN1CCC[C@@H](C(=O)O)C1)c1sccc1C,118%

# Set 2 — technique: competition with immobilised ligand; concentration: 0.1 µM
# SMILES: CC(C)CC(=O)N1CCc2nc(-c3ccc(Br)cc3)nc(N(C)Cc3ccccc3)c2C1
target,effect on,remaining binding
"Tyrosine-protein kinase receptor UFO (AXL, Homo sapiens, UniProt P30530)",cell-free assay,63%
"Serine/threonine-protein kinase 4 (STK4, Homo sapiens, UniProt Q13043)",cell-free assay,100%
"Ephrin type-B receptor 6 (EPHB6, Homo sapiens, UniProt O15197)",cell-free assay,91%
"Calcium/calmodulin-dependent protein kinase type II subunit alpha (CAMK2A, Homo sapiens, UniProt Q9UQM7)",cell-free assay,100%
"Serine/threonine-protein kinase 32B (STK32B, Homo sapiens, UniProt Q9NY57)",cell-free assay,87%
"Macrophage colony-stimulating factor 1 receptor, autoinhibited (CSF1R, Homo sapiens, UniProt P07333)",cell-free assay,100%
"Mast/stem cell growth factor receptor Kit (KIT, Homo sapiens, UniProt P10721, D816H)",cell-free assay,71%
"Uncharacterized serine/threonine-protein kinase SBK3 (SBK3, Homo sapiens, UniProt P0C264)",cell-free assay,100%
"Ribosomal protein S6 kinase alpha-4, C-terminal kinase domain (RPS6KA4, Homo sapiens, UniProt O75676)",cell-free assay,100%
"Mitogen-activated protein kinase kinase kinase 3 (MAP3K3, Homo sapiens, UniProt Q99759)",cell-free assay,77%
"Tyrosine-protein kinase JAK3, JH1 (JAK3, Homo sapiens, UniProt P52333)",cell-free assay,98%
"Rhodopsin kinase GRK7 (GRK7, Homo sapiens, UniProt Q8WTQ7)",cell-free assay,74%
"Proto-oncogene tyrosine-protein kinase Src (SRC, Homo sapiens, UniProt P12931)",cell-free assay,100%
"Muscle, skeletal receptor tyrosine-protein kinase (MUSK, Homo sapiens, UniProt O15146)",cell-free assay,100%
"Phosphatidylinositol 4,5-bisphosphate 3-kinase catalytic subunit alpha isoform (PIK3CA, Homo sapiens, UniProt P42336, E545K)",cell-free assay,85%
"Tyrosine-protein kinase TXK (TXK, Homo sapiens, UniProt P42681)",binding,100%
"Serine/threonine-protein kinase 35 (STK35, Homo sapiens, UniProt Q8TDR2)",cell-free assay,96%
"Mitogen-activated protein kinase kinase kinase 15 (MAP3K15, Homo sapiens, UniProt Q6ZN16)",cell-free assay,100%
"Tyrosine-protein kinase JAK2, JH1 (JAK2, Homo sapiens, UniProt O60674)",cell-free assay,100%
"Serine/threonine-protein kinase Nek5 (NEK5, Homo sapiens, UniProt Q6P3R8)",cell-free assay,100%
"Insulin receptor (INSR, Homo sapiens, UniProt P06213)",cell-free assay,84%

# Set 3 — cell line: mouse MPNST tumor cells; technique: high-content immunofluorescence imaging; refers to: nuclear SOX9; concentration: 10 µM; time: 12 h; notes: mean of 2 replicates; reference: DMSO control; direction: higher = more nuclear SOX9
Structure (SMILES),nuclear SOX9 intensity
O=[N+]([O-])c1cc(Cl)ccc1S(=O)(=O)N1CCN(Cc2ccccc2)CC1,91.3 % of DMSO
CC1NC(=O)NC1=O (stereo not drawn),90.6 % of DMSO and 103 % of DMSO
CC(C)NCC(O)COc1ccc(COCCOC(C)C)cc1 (stereo not drawn),109 % of DMSO
CC1CNCCN1S(=O)(=O)c1cccc2cnccc12 (stereo not drawn),90.6 % of DMSO
Nc1nc(=O)c2nc(CNc3ccc(C(=O)N[C@@H](CCC(=O)O)C(=O)O)cc3)cnc2[nH]1,111 % of DMSO
CC(C)(CO)Cc1cc(C(C)(C)C)c(O)c(C(C)(C)C)c1,107 % of DMSO
O=C(Oc1nsnc1N1CCCCC1)N1CCCCC1,124 % of DMSO

# Set 4 — effect on: enzyme activity; action: inhibitor; concentration: 77 µM; reference: untreated
# Target: DNA polymerase theta, ATPase domain (POLQ, Homo sapiens, UniProt O75417)
# Chain of UniProt O75417 (whole entry, unmodified, looked up): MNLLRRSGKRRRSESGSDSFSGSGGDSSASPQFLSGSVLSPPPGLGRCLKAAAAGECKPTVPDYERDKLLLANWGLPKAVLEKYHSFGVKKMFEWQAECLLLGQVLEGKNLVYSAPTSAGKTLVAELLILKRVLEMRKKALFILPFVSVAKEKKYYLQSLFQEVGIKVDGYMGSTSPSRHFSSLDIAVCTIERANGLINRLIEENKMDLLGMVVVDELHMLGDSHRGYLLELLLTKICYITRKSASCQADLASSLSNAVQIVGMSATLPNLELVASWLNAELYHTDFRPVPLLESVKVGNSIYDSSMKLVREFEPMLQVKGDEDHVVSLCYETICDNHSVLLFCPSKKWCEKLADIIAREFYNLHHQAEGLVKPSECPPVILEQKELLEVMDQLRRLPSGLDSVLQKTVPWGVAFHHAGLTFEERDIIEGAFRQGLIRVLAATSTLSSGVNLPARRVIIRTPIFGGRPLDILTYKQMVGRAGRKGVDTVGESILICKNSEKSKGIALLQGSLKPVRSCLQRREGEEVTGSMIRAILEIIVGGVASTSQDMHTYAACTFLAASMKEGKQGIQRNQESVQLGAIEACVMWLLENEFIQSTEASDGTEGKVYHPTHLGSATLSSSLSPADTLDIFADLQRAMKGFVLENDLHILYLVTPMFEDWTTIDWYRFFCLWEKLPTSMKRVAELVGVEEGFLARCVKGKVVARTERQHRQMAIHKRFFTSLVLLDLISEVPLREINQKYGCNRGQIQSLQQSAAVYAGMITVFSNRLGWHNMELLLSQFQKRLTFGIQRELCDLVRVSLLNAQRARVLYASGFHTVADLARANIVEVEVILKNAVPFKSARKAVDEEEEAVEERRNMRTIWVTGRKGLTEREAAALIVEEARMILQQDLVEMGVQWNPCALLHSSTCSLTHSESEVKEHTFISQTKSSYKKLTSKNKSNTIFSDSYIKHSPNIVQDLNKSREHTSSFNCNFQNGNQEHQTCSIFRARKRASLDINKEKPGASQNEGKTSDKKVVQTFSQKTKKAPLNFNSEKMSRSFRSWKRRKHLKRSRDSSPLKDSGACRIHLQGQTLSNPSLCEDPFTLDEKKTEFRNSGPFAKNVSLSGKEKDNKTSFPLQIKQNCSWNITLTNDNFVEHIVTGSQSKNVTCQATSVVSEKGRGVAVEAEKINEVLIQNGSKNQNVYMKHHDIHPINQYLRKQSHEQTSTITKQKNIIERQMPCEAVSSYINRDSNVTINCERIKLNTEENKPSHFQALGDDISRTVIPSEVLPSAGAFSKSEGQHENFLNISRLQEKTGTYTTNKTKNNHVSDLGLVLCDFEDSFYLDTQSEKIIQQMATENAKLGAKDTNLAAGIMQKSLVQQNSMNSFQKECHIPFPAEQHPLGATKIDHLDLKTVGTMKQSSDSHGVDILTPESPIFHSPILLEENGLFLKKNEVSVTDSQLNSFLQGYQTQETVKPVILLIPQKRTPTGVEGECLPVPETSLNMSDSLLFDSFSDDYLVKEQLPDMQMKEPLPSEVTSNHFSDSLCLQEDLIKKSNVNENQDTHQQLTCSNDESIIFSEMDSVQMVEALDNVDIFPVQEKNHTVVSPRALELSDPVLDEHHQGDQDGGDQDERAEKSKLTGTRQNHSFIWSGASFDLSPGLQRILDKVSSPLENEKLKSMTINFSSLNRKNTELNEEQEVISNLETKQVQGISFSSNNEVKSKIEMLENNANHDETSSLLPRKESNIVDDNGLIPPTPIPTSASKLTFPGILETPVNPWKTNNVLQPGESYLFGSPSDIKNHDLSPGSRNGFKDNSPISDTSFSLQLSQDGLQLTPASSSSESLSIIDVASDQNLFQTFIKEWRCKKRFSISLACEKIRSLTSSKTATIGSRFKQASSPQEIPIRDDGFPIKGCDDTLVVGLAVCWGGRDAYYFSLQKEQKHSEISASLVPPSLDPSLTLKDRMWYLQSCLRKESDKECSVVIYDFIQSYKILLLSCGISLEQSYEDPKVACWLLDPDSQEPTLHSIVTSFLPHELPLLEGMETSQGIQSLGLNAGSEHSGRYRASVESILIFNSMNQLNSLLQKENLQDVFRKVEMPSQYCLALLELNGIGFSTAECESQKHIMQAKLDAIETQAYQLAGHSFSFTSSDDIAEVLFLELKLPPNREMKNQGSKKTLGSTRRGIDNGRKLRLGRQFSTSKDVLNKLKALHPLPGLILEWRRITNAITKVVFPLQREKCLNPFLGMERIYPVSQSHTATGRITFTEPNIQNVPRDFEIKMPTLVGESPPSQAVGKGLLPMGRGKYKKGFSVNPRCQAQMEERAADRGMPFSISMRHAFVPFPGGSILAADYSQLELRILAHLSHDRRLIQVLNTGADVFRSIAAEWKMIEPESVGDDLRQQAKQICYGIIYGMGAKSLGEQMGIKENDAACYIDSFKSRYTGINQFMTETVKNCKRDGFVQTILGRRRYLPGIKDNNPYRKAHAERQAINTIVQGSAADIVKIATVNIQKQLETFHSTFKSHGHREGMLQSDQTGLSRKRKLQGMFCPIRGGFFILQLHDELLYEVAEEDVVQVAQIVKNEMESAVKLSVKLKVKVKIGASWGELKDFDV
Compound,remaining activity
CC(CCc1ccccc1)NCC(O)c1ccc(O)c(C(N)=O)c1 (stereo not drawn),102%
O=c1[nH]c(=S)[nH]c(-c2ccccc2)c1Cc1c(O)ccc2ccccc12,107%
Cc1nnc(NS(=O)(=O)c2ccc(N)cc2)s1,98.7% and 99.3%
Cc1ccsc1/C=C/C1=NCCCN1C,92.4%
Cc1ccc(C(=O)Cn2c3c(sc2=N)CCCC3)cc1,78.6%
CCCCCCCCCCCCCCCC(=O)OC(CC(=O)O)C[N+](C)(C)C (racemic),100%
CO[C@@H](C(=O)N1Cc2[nH]nc(NC(=O)c3ccc(N4CCN(C)CC4)cc3)c2C1)c1ccccc1,69.2% and 97.8% and 101% and 88.4%

# Repeated from above (set 1):
Compound,viability
COc1cc2nc(N3CCN(C(=O)C4COc5ccccc5O4)CC3)nc(N)c2cc1OC (stereo not drawn),16.5%
CC(C)C[C@H](NC(=O)CNC(=O)c1cc(Cl)ccc1Cl)B1OC(=O)C(CC(=O)O)(CC(=O)O)O1,22.5%
CO[C@H]1/C=C/O[C@@]2(C)Oc3c(C)c(O)c4c(O)c(c5c(nc6cc(C)ccn65)c4c3C2=O)NC(=O)/C(C)=C\C=C\[C@H](C)[C@H](O)[C@@H](C)[C@@H](O)[C@@H](C)[C@H](OC(C)=O)[C@@H]1C,64.1%
CC(CCc1ccccc1)NCC(O)c1ccc(O)c(C(N)=O)c1 (stereo not drawn),113%
CC(C)[C@H](N)C(=O)OCCOCn1cnc2c(=O)[nH]c(N)nc21,107%
